Measurements gathered from unrelated publications.
A part holds a random share of what one study measured.

Sample 1
Target: Prothrombin, mature alpha-thrombin (F2, Homo sapiens, UniProt P00734)
Technique: aptamer microarray, sandwich
Molecule type: DNA with 2'F-ANA
Matrix: in vitro
Tested at: 200 nM
Setting: whole 15-mer aptamer, many near background
With: Cy3 exosite-II aptamer, 400 nM
Reading: higher = stronger binding
Oligonucleotide: GGTTGGTGTGGTTGG
Modification | mean fluorescence intensity [a.u.]
2'F-ANA at 1 3 6 9 10 11 12 13 14 | 79.6
2'F-ANA at 3 4 6 8 10 12 13 | 279
2'F-ANA at 4 7 12 | 731
2'F-ANA at 1 4 5 8 10 11 12 13 14 15 | 44.2
2'F-ANA at 1 5 8 9 11 13 14 | 54.3
2'F-ANA at 1 3 4 7 13 14 | 71.4
2'F-ANA at 4 5 6 7 8 13 14 15 | 53.6
2'F-ANA at 4 7 8 9 10 12 14 15 | 72
2'F-ANA at 1 2 3 6 7 11 12 13 14 15 | 76.7
2'F-ANA at 1 3 6 7 9 12 14 15 | 265
2'F-ANA at 2 4 8 10 14 15 | 122
2'F-ANA at 1 2 7 10 12 13 14 | 49.3
2'F-ANA at 1 2 3 4 6 8 9 11 12 13 15 | 185
2'F-ANA at 1 2 3 5 6 7 8 14 | 68.9
2'F-ANA at 1 3 4 5 7 9 10 11 12 | 82.8
2'F-ANA at 2 5 6 9 11 12 13 14 | 47.3
2'F-ANA at 1 2 3 4 5 7 9 10 11 13 14 15 | 48.7
2'F-ANA at 2 3 4 5 8 10 12 13 15 | 49.2
2'F-ANA at 2 3 4 6 7 12 14 | 317
2'F-ANA at 3 5 8 10 11 13 | 72.8
2'F-ANA at 1 4 6 8 9 11 15 | 95
2'F-ANA at 2 3 4 6 8 9 12 13 14 | 214
2'F-ANA at 1 3 4 5 6 9 11 13 | 50.2
2'F-ANA at 1 4 13 14 15 | 46.4
2'F-ANA at 1 2 3 4 6 7 8 10 11 12 14 | 54.2

Sample 2
Target: Histone acetyltransferase KAT6A, winged helix 1, GST fusion (KAT6A, Homo sapiens, UniProt Q92794, residues 1-85)
Technique: protein binding microarray
Molecule type: double-stranded DNA, one strand shown
Matrix: in vitro
Tested at: not given
Setting: 8-mer, flanks averaged, mean of 2 arrays, mostly near background
Reference: not given
Reading: higher = stronger binding
Construct (chain): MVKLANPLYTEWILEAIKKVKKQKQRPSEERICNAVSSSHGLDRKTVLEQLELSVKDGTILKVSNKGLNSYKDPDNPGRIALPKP
Oligonucleotide | E-score
AGGTGGGA | -0.159
GCGGTTCA | 0.254
CTGAGCAA | -0.261
CGGAAGCA | 0.0872
CGGGGAAG | 0.22
CGAAGGAC | 0.0968
TAGGTGAA | -0.3
ACTAGTGC | 0.111
AAAGCCTC | -0.219
GATATGCA | -0.0715
AGTCTCCC | -0.043
CGTACAGA | -0.0239
CCTCATGC | -0.0978
ATTACAAC | -0.178
TACGTGGA | 0.0587
TGCAAGAA | -0.0807
AGTACACA | -0.00659

Sample 3
Target: RNA binding protein fox-1 homolog 2, RRM domain, GST-SBP tag (RBFOX2, Homo sapiens, UniProt O43251-10, residues 100-194)
Technique: RNA Bind-n-Seq
Molecule type: RNA
Matrix: in vitro
Tested at: 365 nM
Setting: natural RNA segment, single round, ends assumed
Reference: no-protein control
Reading: higher = stronger binding
Construct (chain): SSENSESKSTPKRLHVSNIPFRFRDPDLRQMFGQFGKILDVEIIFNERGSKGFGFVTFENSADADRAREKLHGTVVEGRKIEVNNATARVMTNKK
Oligonucleotide | RBNS enrichment (R)
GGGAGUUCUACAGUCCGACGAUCAGUGCUUGACCCAAGUCAGUCAUAUUUAUAAUAUGCCUGCUCUUUGUUUAAAAUUAAAUUUGGGCACAGGAAGCACACAGAGACAUUUAGGUUGUUUAAAAAGUCAGAAUUGGAAUUCUCGGGUGCCAA | 0.395
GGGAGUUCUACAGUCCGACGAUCUCAACAUAAACUUGUCUGACAGCAAAUAGUCAGAUGCUGCAGUGUUUGGAAAUGAUGUACAUCUUGACCAUUGCACUGUUGGAACUUAGUCCCUUCUGUUUUAAAGGAGGUGGAAUUCUCGGGUGCCAA | 0.276
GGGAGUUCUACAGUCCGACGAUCAAAUAUCUUUGUGAAUAUUUUAGUAUCGUCUUUGAUAAUAUUCAACAUUUUCAUGACCUGGUUAUAGCCUUUGCUGGUGUUUUUAAAAUACCUGGACUCAAUGACAAAGAUGGAAUUCUCGGGUGCCAA | 0.441
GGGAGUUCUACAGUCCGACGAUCCCUCUCCCUCUUUCUAGCCUGGGGCUUGAAUUUGCAUGUCUAAUUCAUUUACUCACCAUAUUUGAAUUGGCCUGAACAGAUGUAAAUCGGGAAGGAUGGGAAAAACUGCAUGGAAUUCUCGGGUGCCAA | 1.72
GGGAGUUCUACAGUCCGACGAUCCCACAGUCAGAACAUGCAAACUUUUUUGAAGAAAUUACUUGAAUAAGUAGUUUUCAUGUUUUCAAUAUGCAGUUUUGAAAAUGAGGAUUCACCUAGACUUUUUUAGAUUUUGGAAUUCUCGGGUGCCAA | 0.641
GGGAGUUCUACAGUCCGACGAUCCUUUUAGUCUAUGGGAAUUACAGGGUUGCCGCUAAAAUAUUCACUUGUUCAUAUCGUGUCAGAGAUUUCCUCUUCUCUGGAGCUUAGGUGGCUCUUCACAAUCCAUAGGCUGGAAUUCUCGGGUGCCAA | 0.468
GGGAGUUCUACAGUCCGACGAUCGUUGAGGCCUUCUUUAUUCCUGCUCUGUCAGCUUUCAUGGUCACUGGAAAUCACUGCCACAGUACAGGCUGUGACUGCAGAUGCCAAAAUGAUUAGGAUGCCACAGAUGGUGGAAUUCUCGGGUGCCAA | 0.37
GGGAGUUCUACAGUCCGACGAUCGUGUAAGAUCACACAGUUGUCAGAGUCAGGAUUCAAAUCUAGUUCUAACUCCAAAGCUCUCCACACUAACAUUGUUUUGCUUAUUAUUGCUCCAAAGAUAAUUACCCCAAUGGAAUUCUCGGGUGCCAA | 0.73

Sample 4
Target: Ras GTPase-activating protein-binding protein 1, full length (G3BP1, Homo sapiens, UniProt Q13283)
Sequence of UniProt Q13283 (whole entry, looked up): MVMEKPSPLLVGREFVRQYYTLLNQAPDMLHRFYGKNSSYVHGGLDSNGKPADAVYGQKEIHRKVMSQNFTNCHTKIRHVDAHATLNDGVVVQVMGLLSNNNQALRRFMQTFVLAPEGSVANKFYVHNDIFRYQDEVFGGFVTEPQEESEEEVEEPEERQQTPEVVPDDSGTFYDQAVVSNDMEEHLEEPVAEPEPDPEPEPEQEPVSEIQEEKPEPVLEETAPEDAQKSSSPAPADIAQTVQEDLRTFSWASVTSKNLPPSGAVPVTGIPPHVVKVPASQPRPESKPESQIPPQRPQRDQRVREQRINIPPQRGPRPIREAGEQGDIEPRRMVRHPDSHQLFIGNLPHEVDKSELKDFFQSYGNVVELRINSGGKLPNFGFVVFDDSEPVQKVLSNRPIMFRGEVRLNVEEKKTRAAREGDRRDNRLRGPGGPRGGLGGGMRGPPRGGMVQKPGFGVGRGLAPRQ
Technique: RNA Bind-n-Seq
Molecule type: RNA
Matrix: in vitro
Tested at: 200 nM
Setting: whole 134-nt RNA, ends assumed
With: 150 mM KCl
Reference: input library
Reading: higher = stronger binding
Oligonucleotide | log2 enrichment
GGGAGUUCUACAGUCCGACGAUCAAAUAUCAGUGAUCAUCGCAAGGAAGGAGGCAGACAAGAGUAAGGCACACCUGACUCUUAGGACUAGCAGUCAGAACCAGGAGGAAAGGUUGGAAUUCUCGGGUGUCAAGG | -0.179
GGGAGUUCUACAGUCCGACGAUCAAGUCCUGUGCUACACAUCGUAUGUACCGAAUCGGGGAAAAGGGGAAAAGGAAAAGGAAAGUAUUAUGUUACGCCGUUCGGAUCUGCACUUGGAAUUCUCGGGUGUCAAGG | -0.49
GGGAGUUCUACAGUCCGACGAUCCAAGUCCUGUGCUACACAUCGUAUGUACCGAAUCGGAAAGGUUUGGAAAAAAAGGAAAGUAUUAUGUUACGCCGUUCGGAUCUGCACUUCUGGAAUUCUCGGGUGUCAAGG | -1.02
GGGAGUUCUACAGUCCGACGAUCACCAUGCAGGUAGGCAUCUUUGGGAAGUGGGGCAAGGGGGGGAUAGGGAGGGGGGUAACACUUUGGGAACAGGUGGUCCCAGGUCGUUUCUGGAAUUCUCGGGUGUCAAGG | 1.3
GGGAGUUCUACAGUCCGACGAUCAUUCUUCAUUGAGGGUGAGGAUCUCCCAAUGGGAGACUGCUCUGAAAAGAGCAUGUGCUUUUUGAAUUAGAUAACCUACUAUAAUCAUGGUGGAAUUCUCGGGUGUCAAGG | -0.861
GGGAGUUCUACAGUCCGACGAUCAAGUCCUGUGCUACACAUCGUAUGUACCGAAUCGGUUUUUUUGGUUUUUGGUUUGGAAAGUAUUAUGUUACGCCGUUCGGAUCUGCACUUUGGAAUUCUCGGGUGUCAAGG | -1.33
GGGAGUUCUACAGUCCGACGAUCCUCAAGUCCUGUGCUACACAUCGUAUGUACCGAAUCGGGGAGGAGGGGAGGGGAAAGUAUUAUGUUACGCCGUUCGGAUCUGCACUUCCAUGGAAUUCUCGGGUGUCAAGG | 0.996
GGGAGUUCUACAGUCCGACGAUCAGUCCUGUGCUACACAUCGUAUGUACCGAAUCGGGAAAAAGGGUUUUUGGGUUUGGGAAAGUAUUAUGUUACGCCGUUCGGAUCUGCACUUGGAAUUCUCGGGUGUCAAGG | -0.412
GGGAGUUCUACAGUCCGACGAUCUGGGAGGUGGAUUUUGUUUAUUUUUUUAGCUCAUUUCCAGGGGUGGGAAUUUUUUUUUAAUAUGUGUCAUGAAUAAAGUUGUUUUUUAAAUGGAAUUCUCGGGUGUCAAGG | 0.194

A few entries again (sample 2):
Oligonucleotide | E-score
ACTAGTGC | 0.111
AAAGCCTC | -0.219
GATATGCA | -0.0715
AGTCTCCC | -0.043
CGTACAGA | -0.0239
CCTCATGC | -0.0978
ATTACAAC | -0.178
TACGTGGA | 0.0587
TGCAAGAA | -0.0807
AGTACACA | -0.00659
